# Results gathered from unrelated publications.
# Numbered parts are unrelated; each lists some results of a single study. Positions count from the first letter of the parent shown.

# Series 1 — target: CCNA2, cyclin fold, Cln2 fusion (human); technique: yeast growth competition, sequencing; sample: yeast; setting: strong parent motif; baseline: not given; reading: higher = stronger binding
# Starting sequence: SAMHD1 docking peptide (human); ASKSRVQLFKDDP; partner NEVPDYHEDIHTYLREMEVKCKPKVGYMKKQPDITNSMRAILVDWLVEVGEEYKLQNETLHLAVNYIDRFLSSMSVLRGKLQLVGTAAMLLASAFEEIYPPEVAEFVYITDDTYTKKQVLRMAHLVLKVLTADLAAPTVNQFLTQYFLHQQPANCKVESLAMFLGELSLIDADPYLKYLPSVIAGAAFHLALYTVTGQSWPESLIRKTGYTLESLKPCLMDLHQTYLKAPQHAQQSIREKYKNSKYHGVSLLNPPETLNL
Substitution,normalised enrichment score
ASKSSVQLFKDDP [R5S],0.0404
ASHSRVQLFKDDP [K3H],2.41
ASKSRVQYFKDDP [L8Y],0.336
ASKSRVYLFKDDP [Q7Y],0.442
ALKSRVQLFKDDP [S2L],3.03
ASKSRVQLQKDDP [F9Q],0.0969

# Series 2 — technique: protein binding microarray; form: double-stranded DNA, one strand shown; sample: in vitro; concentration: not given; baseline: not given; reading: higher = stronger binding
# Target: Histone acetyltransferase KAT6A, both winged helices, GST fusion (KAT6A, Homo sapiens, UniProt Q92794, residues 1-181)
# Setting: 8-mer, flanks averaged, mean of 2 arrays, mostly near background
# Target sequence (chain): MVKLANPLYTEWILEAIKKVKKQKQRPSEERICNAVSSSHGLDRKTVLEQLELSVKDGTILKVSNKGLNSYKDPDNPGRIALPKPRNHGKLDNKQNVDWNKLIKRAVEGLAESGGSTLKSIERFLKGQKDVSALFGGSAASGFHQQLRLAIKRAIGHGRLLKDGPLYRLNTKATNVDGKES
Oligonucleotide,E-score
TCTGGTAA,-0.0489
ACAAAGGC,-0.00722
CTGCAATC,-0.0255
GAGGAAAC,-0.0448
ACGTTATC,-0.159
AGGTTCTG,0.00526
AACCTCAG,-0.0684

# Series 3 — technique: RNA Bind-n-Seq; form: RNA; sample: in vitro; concentration: not given; baseline: input RNA pool; reading: higher = stronger binding
# Target: RING finger protein unkempt homolog, zinc fingers 1-6, GST-SBP tag (UNK, Homo sapiens, UniProt Q9C0B0, residues 30-357)
# Setting: RNA with constant flanks, human and mouse sites, ends assumed
# All sequences stand within: GGGAGUUCUACAGUCCGACGAUC … CAACAGAGGAUUGAGCAUCA
# Residues (chain): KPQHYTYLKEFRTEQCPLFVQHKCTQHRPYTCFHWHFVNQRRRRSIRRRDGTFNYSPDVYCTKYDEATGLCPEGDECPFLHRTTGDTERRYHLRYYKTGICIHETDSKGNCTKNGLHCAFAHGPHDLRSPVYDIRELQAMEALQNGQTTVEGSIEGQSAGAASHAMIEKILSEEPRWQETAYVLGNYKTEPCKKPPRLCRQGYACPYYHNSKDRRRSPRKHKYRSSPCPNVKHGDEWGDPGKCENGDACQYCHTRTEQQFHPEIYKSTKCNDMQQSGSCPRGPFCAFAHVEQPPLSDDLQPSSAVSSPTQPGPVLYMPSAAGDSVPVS
Oligonucleotide,bound/input enrichment
AAGUUCUAGAAGGCAUUAUACAAGGUCACGAUCACGAUCUCGCUCGCAUAGACGAUCCCGGAGCAGGUCUUACAGCCGAGAUUAUCGCAGGCGCCACAGCCACAGCCAUUCUCCCAUGUC,0.209 ratio
GUUUUGCCGUGUUCUGUUCAAGAGUAUCAGGUUGGACAGCUUUACUCUGUUGCAGAAGCGAGUAAGAAUGAAACUGGUGGUGGAGAAGGAAUCGAAGUCCUGAAGAAUGAACCUUAUGAA,0.327 ratio
CCAGGGCCUCCGCCAGCAGGGAGGGGGUGUGCUCACUGCAGGAACGUUCAUUUAGAAGAUGUACCAUGGAGCACCUCCCUUUGCUCUAAGAGAAAACCCAUCUUAAAGUUCAUCUUGAAU,0.097 ratio
UCCCUGCUUUGGACCCUGCUACAGAAUGCCUCUCCUGCGUGUCCCACACCAAGCCCUGCUGUGUGUCCCCGUCCAAGCUCUCCUGCGUGUCCCCCUCCAAGCCCCGCUGUGUGUCCCCCU,0.575 ratio
UGCAUUCGCAAAGCAAAGAUUUCCGCUGUUGCUUUCCGGAAAGCCUUUUGCCACCACAAGCUAGUAGAACUUGAUGCCACGGGUGUGAAUGCUGACAUCACUAUCACAGACAUCAUAAGU,0.11 ratio
UAACUCUUAUCUUGGGUACUUGAGCAGACGGUAUAUUCCAGAGGUGGGAGGUGGGAGGGGAAGGGAGAAAUCCAAAACAAAGUGUUCUUGCUCUGACAGAAUAUUAAUCUUGUACGCUUG,0.116 ratio
UACAGAUAGUACCAUUAAGAUGAGUUUUCAGGGGUCUAGGGAAGUUAAGGGUGGGAGGGUAUUAGGUAAGGGAGAUAGACGUUUAGAGAUGUGUUAAGUUAGAAAUCAGAUUGAUGCAAG,56.8 ratio
CUCUAUUUUUUUACUAUGGCUGGCAGUGUAUGGUGGGUAAUUCUUACCAUCACAUGGUUUUUAGCAGCUGUGCCAAAGUGGGGUAGUGAAGCUAUUGAGAAGAAAGCAUUGCUGUUUCAC,0.336 ratio
GUAGUUAUGAAUCGCAGACGCAAGAGGUUUCAGCAUUCCCAAUUAUCAAAAAACAGAAAAACAAAAAAAAGAAAGAAAAAAGUGCAACUUGAGGGACGACUUUCUUUAACAUAUCAUUCA,0.594 ratio

# Other studies, line by line
Molecule,target,assay,test system,conditions,how to read,quantity,value
"PhoQ, residues 284 288 289 292 302 303 ASSHFY","PhoP, residues 12 14 15 18 19 NHFIF (Escherichia coli, UniProt P23836)","Sort-seq, measured: YFP reporter",E. coli,"PhoQ-PhoP variant library, together with: 10 µM Mg2+","baseline: high Mg2+ state, higher = stronger signaling",fold induction,15.8

# For quick reference, copied from above (series 2):
Oligonucleotide,E-score
CTGCAATC,-0.0255
GAGGAAAC,-0.0448
